Measured values from different studies.
Parts stem from different laboratories: compare values within a part only. Positions count from the first letter of the parent shown.

Block 1
Target: RNA binding protein fox-1 homolog 2, RRM domain, GST-SBP tag (RBFOX2, Homo sapiens, UniProt O43251-10, residues 100-194)
Technique: RNA Bind-n-Seq
Molecule type: RNA
Sample: in vitro
Tested at: 365 nM
Setting: natural RNA segment, single round, ends assumed
Relative to: no-protein control
Direction: higher = stronger binding
Shared flanks, not repeated: GGGAGUUCUACAGUCCGACGAUC … UGGAAUUCUCGGGUGCCAA
Target sequence (chain): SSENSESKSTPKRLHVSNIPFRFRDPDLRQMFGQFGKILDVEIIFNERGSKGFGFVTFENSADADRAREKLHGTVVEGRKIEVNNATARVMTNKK
Strand | RBNS enrichment (R)
UUCUCAGGACUCAUUGUUCCACCCCCAACCAAUUUGAAUGCCUACAAUAAGUUCAGGAGCUGUGCCAAGCACUUUCCUCUUUUACAGCUGGAGAUCACUGGAAAGGUGUC | 0.343
GGGUCUCUUAGACCUUACCUCUCAACUCCCUCAAGAGUACCAGUCUCUGAAGUUAUAAUGCUUUGGUCUCUACAUUAGGGGCAAGAUCCAGUCUGAGAGAAGUCUCCUUU | 0.361
CUCCCAGUCUCACCUACCAUACUGUGCCAUCUCUAGCCAAGCAAGCCAGGUUUAGAGAAGGGUCAAAAAAAAAAAAAAGGGUUGUUUACUUCCAACUUGUUCUGAUGCCC | 1.28
UUUUAAUUUUUAACACCAUGGCACCUUUUGCACAUAACAUGCUUUAGAUUAUAUAUUCCGCACUCAAGGAGUAACCAGGUCGUCCAAGCAAAAACAAAUGGGAAAAUGUC | 1.19
UCCUGGCAUGUGCUAGGGUAAACGAAGGCAUAAUAAGCCAUGGCUGACCUCUGGAGCACCAGGUGCCAGGACUUGUCUCCAUGUGUAUCCAUGCAUUAUAUACCCUGGUG | 2.08
ACCGUGAUUAACUCAUAGCUACAUAUCAUUGCAUAAAUGGGAUUUAUCUUUUUUCUCACUUAUUUUUGCGGUGAAAGUCGAGGGCAUGCAAGAGUUUCUCUUCCAGAAGC | 0.748
CAGGGAGGCCUUUCCGCGGUGGGAUGUUGAGCUGAGGCCGGAGGAGAAGUAGCAGUCGCUGGCAGAGCACACAGGCUGCUCUGGGGGAUGAGCUGGUGCGUUUAAGGAAC | 0.71
CCCUGCUUAGCAUGGUUGUGCUACCAUCCAGGAGAAUGUUGAUGGAACCAAAUUAAAUAUUUACUGUACGUUGUGGUGUUGUCUUCAUCUACAAGGAAUCUCAGUAGUUG | 0.607
CCAGUUGCCAAACAGACCCCCCACCCCCUGGAUUUUCCUUCUCCCUCCAUCCCUUGACGGUUCUGGCCUUCCCAAACUGCUUUUGAUCUUUUGAUUCCUCUUGGGCUGAA | 0.561
UAAAUGGAAAUUGAAGACGUAAAGAAGAGCUUUCUUUUCCAAGAGACUCUGGUCUUGGCUAUGCUGAAGACUUUUUUAAAAAAUGGUUUUCAGGGAACCGUGAGGAUCUG | 0.376
CCAUGUAUUCUAGGCCAGGUAGGCAACACAGAGCCAAGGCGGGUGCUGGAAGCCAGACGGAACAGUGUUGGGGCAGGAAGGUGGAUGCUGUUGUCAUGGAGCUGUGGGAG | 0.902
UGUCAGCUUCCUGUCUGGCUCAGUAUAGCCUCACUCUGCCGUUAUGCAAAUGGAGAUCAAAGUAAUUCUGACUGUCCAGGAGCUAUCUCACUUUCUGCUGUGUGGGCGGC | 0.419

Block 2
Target: CEP164, C-terminal peptide (human)
Technique: DHFR complementation, deep sequencing
Sample: yeast
Setting: single substitutions, model-inferred values
Relative to: wild type
Direction: higher = weaker binding
Starting sequence: PDZK1, PDZ domain 2 (human); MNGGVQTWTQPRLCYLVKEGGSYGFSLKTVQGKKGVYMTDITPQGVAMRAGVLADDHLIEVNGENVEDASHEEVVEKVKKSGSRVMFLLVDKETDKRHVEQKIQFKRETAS; partner HNRVKVYRF
Substitution | binding free energy change
K18C | 0.478 kcal/mol
E108M | -0.277 kcal/mol
S83V | 0.16 kcal/mol
D55W | 0.671 kcal/mol
T39E | 0.607 kcal/mol
E72K | 0.812 kcal/mol
T7Q | -0.00295 kcal/mol
N65H | -0.103 kcal/mol
I41G | 1.43 kcal/mol
P11V | 0.378 kcal/mol
V46R | 0.888 kcal/mol
V52N | 1.06 kcal/mol

Block 3
Target: Histone acetyltransferase KAT6A, both winged helices, GST fusion (KAT6A, Homo sapiens, UniProt Q92794, residues 1-181)
Technique: protein binding microarray
Molecule type: double-stranded DNA, one strand shown
Sample: in vitro
Tested at: not given
Setting: 8-mer, flanks averaged, mean of 2 arrays, mostly near background
Relative to: not given
Direction: higher = stronger binding
Target sequence (chain): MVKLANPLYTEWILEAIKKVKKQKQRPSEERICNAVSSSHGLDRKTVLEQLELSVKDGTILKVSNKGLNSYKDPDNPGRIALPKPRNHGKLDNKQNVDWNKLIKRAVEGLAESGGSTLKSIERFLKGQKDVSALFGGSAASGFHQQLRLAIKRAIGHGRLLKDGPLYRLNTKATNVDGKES
Strand | E-score
AGGGCTAA | -0.037
AGACGTCA | -0.0432
AACCCGAT | 0.134
CAAAAGTA | -0.117
GACGGGAA | 0.318
CGTTAATC | 0.2
CGGACTCA | 0.2
ATCGGCTG | 0.0328
AATGTACT | -0.0236
GCTCTTGA | -0.133
AATGTAGA | -0.0848
ATGCTGGA | -0.133
GGGGGCTA | -0.22
ATTCGAAT | -0.207
AAATGCGA | 0.0623
CCTCACAG | -0.132
AATCCGCT | 0.184
ATTCTGAA | -0.0323
AAGGATAT | -0.0335
ATGTGCGC | 0.214
CGAACACC | 0.0735
GGGAGGAC | -0.00808
GTACGGGA | 0.261
ATGACTCG | -0.0887
CGCCATAA | 0.0749

Block 4
Target: human cyclin A1
Read-out: peptide binding
Technique: yeast competitive growth sequencing
Molecule type: peptide
Organism: Saccharomyces cerevisiae
Strain: cyclin A1-Cln2 fusion
Tested at: concentration not given
Setting: RxL motif peptides
Direction: direction not given
Molecule | binding enrichment score
PPHRRRLLFACSP | 0.179
SNARRSLNFGGST | 0.954
TLKGRRLVFDNQL | -0.0564
PPARRRLRLSVDE | 0.464
SSAQRRLEIPSGG | 0.155
SRIRRELFIEEIQ | 0.769
SKACRRLFGPVDS | 0.58

Block 5
Target: ABI1, truncated, D143A, DHFR fusion (Arabidopsis thaliana)
Technique: DHFR PCA, deep sequencing
Sample: yeast
Setting: methotrexate growth selection, single substitutions
Together with: (+)-ABA 200 µM
Relative to: wild-type fitted maximum
Direction: higher = stronger binding
Starting sequence: PYL1, truncated, DHFR fusion (Arabidopsis thaliana); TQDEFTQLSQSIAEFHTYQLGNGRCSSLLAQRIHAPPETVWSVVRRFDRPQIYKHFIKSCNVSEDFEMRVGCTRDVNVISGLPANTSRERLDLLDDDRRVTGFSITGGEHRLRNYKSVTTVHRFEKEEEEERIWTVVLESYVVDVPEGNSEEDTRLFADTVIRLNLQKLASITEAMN
Substitution | relative binding score
K168Y | 70.7%
Y115S | -7%
L156F | 91.6%
L29H | 100%
S9E | 100%
L169F | -1.49%
G71R | 41.1%
T173Y | 51%
T160D | -12.1%
N61S | 106%
D159L | 0.386%
T17E | 88.6%
E128G | 123%
V143N | -9.54%

Block 6
Target: NFE2L1, bZIP domain (human)
Technique: DHFR protein complementation
Sample: yeast
Setting: single substitutions, most at no-binding floor
Relative to: wild-type JUN-FOS pair
Direction: higher = stronger binding
Starting sequence: JUN, bZIP domain (human); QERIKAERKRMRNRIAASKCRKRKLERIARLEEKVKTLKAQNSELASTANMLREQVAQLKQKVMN; partner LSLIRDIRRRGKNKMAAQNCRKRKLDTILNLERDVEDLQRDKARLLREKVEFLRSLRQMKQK
Substitution | binding fitness [natural log]
E33M | -1.46
E32V | -1.42
K39M | -1.5
K34R | -1.38
A49S | -1.59
E44R | -1.3
S47N | -1.42
R53T | -1.27
R53M | -1.56
L38P | -1.42
A49F | -1.35
M51L | -1.5
A46G | -1.52
V35C | -1.46
A46V | -1.49
R30N | -1.29
E44A | -1.52
R53L | -1.44
V56Q | -1.55
Q55A | -1.21
A40L | -1.31
Q41G | -1.52
K34Q | -1.32
K36W | -1.59
E32A | -1.55

Other studies, line by line
Molecule | target | test | test system | setting | scale | endpoint | value
PhoQ, residues 284 288 289 292 302 303 SCCLKL | PhoP, residues 12 14 15 18 19 NNFVT (Escherichia coli, UniProt P23836) | Sort-seq, refers to: YFP reporter | E. coli | PhoQ-PhoP variant library, together with: 10 µM Mg2+ | relative to: high Mg2+ state, higher = stronger signaling | fold induction | 8.26

Excerpt of the above (block 4):
Molecule | binding enrichment score
PPHRRRLLFACSP | 0.179
SNARRSLNFGGST | 0.954
TLKGRRLVFDNQL | -0.0564
PPARRRLRLSVDE | 0.464
SSAQRRLEIPSGG | 0.155
SRIRRELFIEEIQ | 0.769
SKACRRLFGPVDS | 0.58
